# Experimental data of several laboratories.
# Protocols differ between the studies behind these lines. ± gives the spread as reported.
# cyp121: Mycocyclosin synthase (cyp121, Mycobacterium tuberculosis, UniProt P9WPP7)
# UniProt P9WPP7, sequence (whole entry, looked up): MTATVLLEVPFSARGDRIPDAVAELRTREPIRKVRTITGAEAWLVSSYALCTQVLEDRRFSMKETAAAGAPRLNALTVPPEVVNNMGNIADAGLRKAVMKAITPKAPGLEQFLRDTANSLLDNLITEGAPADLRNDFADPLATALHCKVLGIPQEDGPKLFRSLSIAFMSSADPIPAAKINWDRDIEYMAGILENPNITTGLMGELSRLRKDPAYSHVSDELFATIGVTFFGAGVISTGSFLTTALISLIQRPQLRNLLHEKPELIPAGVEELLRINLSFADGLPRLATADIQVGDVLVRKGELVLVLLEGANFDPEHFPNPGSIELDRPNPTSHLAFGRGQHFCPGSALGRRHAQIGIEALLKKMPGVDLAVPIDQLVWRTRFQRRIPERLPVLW
# Spike glycoprotein: Spike glycoprotein (Severe acute respiratory syndrome coronavirus 2, UniProt P0DTC2)
# gag capsid C-terminal domain: Gag polyprotein, capsid C-terminal domain (gag, UniProt P12493)
# UniProt P78348, sequence (whole entry, looked up): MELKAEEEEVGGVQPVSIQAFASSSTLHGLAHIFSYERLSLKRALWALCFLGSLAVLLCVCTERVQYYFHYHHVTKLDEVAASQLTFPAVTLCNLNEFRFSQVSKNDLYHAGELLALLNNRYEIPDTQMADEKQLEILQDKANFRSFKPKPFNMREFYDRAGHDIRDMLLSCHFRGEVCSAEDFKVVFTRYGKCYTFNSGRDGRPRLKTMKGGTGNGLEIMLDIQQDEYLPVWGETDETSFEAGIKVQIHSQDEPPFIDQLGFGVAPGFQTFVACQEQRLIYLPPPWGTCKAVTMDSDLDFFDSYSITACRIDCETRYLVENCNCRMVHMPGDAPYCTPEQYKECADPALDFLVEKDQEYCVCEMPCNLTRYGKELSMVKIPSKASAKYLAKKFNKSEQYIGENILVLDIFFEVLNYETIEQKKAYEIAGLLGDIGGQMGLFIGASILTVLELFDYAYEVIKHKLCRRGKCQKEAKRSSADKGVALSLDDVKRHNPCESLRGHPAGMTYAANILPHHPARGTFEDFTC
# UniProt P03314, sequence (whole entry, looked up): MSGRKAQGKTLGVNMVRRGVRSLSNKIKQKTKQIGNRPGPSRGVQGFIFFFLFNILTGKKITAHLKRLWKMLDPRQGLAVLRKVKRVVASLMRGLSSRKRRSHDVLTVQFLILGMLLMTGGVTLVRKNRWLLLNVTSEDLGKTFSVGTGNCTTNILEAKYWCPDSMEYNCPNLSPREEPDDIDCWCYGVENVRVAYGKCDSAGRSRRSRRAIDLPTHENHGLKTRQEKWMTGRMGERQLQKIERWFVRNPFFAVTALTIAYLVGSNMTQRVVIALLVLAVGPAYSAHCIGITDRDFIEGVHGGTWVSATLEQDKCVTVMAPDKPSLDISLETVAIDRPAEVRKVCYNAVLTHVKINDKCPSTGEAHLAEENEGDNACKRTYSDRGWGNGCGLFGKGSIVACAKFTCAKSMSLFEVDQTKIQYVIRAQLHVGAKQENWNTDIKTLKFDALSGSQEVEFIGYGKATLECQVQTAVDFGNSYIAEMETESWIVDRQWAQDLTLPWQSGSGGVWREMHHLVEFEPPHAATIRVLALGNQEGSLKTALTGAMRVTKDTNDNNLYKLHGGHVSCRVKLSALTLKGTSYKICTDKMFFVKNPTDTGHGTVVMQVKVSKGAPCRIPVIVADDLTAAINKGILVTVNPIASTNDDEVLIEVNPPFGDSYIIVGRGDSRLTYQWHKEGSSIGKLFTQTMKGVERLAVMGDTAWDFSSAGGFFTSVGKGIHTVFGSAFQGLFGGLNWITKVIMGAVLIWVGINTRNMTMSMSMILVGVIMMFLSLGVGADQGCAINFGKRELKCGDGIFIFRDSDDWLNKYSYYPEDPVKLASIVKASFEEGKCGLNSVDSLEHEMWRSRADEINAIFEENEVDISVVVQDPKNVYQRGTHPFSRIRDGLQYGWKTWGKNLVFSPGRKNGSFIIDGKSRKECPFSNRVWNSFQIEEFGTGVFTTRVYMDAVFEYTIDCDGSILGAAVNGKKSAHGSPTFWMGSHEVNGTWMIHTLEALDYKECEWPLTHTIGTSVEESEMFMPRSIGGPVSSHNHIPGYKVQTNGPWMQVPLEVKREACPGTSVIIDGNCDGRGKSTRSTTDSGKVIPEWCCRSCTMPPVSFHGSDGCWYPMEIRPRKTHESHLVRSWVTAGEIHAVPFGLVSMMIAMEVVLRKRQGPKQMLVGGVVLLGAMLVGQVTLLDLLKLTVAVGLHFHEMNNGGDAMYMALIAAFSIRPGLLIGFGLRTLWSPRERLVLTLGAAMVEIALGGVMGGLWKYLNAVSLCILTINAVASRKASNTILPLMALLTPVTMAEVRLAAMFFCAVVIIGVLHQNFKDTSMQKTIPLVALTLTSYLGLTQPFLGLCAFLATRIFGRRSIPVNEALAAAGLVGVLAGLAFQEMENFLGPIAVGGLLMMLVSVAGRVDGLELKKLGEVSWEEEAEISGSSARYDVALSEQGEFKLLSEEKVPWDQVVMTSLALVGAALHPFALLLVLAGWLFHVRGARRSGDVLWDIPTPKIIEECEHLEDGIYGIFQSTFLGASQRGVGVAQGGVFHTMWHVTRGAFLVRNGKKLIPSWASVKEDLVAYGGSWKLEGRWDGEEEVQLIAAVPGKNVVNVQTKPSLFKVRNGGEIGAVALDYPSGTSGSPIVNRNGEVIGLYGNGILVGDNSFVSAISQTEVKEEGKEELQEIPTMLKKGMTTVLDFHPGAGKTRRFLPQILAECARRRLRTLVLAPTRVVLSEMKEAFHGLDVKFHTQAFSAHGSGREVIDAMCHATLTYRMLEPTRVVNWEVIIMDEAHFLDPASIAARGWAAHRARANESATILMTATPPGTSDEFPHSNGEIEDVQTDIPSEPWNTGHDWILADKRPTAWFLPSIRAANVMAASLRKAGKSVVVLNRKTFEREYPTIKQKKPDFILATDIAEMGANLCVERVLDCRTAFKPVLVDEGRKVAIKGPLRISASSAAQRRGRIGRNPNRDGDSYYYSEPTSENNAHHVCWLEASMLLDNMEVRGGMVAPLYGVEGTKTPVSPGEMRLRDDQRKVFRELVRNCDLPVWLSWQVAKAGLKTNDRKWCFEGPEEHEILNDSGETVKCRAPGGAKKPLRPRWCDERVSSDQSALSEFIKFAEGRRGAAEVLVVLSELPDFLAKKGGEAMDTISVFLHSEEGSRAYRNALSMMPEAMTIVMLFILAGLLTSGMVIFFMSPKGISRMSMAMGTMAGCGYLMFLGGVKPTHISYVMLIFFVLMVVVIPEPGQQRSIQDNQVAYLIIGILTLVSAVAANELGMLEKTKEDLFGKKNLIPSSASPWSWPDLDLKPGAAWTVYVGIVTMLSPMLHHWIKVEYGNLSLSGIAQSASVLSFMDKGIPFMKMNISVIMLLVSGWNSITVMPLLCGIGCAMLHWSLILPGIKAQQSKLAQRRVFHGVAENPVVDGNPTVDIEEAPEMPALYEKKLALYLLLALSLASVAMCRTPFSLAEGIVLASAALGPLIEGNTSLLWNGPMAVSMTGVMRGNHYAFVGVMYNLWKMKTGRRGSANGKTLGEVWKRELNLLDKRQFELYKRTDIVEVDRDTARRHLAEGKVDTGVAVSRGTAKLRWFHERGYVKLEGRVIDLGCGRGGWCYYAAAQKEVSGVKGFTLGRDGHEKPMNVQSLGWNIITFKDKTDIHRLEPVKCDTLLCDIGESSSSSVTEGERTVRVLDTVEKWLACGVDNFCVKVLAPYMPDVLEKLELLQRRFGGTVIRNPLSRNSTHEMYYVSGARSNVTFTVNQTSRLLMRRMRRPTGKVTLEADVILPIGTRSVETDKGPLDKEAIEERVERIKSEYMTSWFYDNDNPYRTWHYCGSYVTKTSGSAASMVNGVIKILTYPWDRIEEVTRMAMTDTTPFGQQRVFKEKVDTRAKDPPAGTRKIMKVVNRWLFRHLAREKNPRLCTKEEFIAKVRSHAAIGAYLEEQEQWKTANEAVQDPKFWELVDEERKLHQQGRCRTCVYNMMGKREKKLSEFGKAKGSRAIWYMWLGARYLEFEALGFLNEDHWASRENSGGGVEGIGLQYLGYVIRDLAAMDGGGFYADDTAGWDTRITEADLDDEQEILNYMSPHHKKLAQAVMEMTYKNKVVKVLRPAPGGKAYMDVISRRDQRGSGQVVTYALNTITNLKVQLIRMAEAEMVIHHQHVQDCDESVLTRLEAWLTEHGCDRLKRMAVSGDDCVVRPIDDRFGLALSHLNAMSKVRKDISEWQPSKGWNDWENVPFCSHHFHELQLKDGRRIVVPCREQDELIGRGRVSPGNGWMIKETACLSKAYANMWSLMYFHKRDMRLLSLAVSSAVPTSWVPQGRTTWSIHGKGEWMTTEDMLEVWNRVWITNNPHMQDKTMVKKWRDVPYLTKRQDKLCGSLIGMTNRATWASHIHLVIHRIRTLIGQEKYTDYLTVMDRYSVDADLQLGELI
Structure (SMILES),tested on,assay,test system,conditions,scale,quantity,result
C=CC(c1ccc(-c2ccc3c(c2)OCO3)cc1F)n1ccnc1 (stereo not drawn),cyp121,binding,,,,Kd,4.2 ± 0.3 µM
O[C@H]1[C@H]2c3cc4c(cc3CN3CCC(=C[C@@H]1O)[C@H]23)OCO4,"Nucleoprotein (Severe acute respiratory syndrome coronavirus 2, UniProt P0DTC9)","binding, SPR",,,,Kd,58.2 µM
CC(C)OC(=O)[C@H](C)N[P@](=O)(OC[C@H]1O[C@@H](n2ccc(=O)[nH]c2=O)[C@](C)(F)[C@@H]1O)Oc1ccccc1,"Genome polyprotein, NS5 RdRp domain (Yellow fever virus, UniProt P03314)",,,,,Kd,6230 µM
CC[C@H](C)[C@H](NC(=O)[C@H](CC(C)C)NC(=O)[C@H](Cc1c[nH]c2ccccc12)NC(=O)[C@H](CCC(N)=O)NC(=O)[C@@H](NC(=O)[C@H](Cc1ccccc1)NC(=O)[C@H](C)NC(=O)[C@H](CCCCNC(=O)COCCOCCNC(=O)COCCOCCNC(=O)CC[C@H](NC(=O)CCCCCCCCCCCCCCCCCCC(=O)O)C(=O)O)NC(=O)[C@H](CCC(N)=O)NC(=O)[C@H](C)NC(=O)[C@@H](NC(=O)[C@H](CCCCN)NC(=O)[C@H](CC(=O)O)NC(=O)[C@H](CC(C)C)NC(=O)C(C)(C)NC(=O)[C@@H](NC(=O)[C@H](CO)NC(=O)[C@H](Cc1ccc(O)cc1)NC(=O)[C@H](CC(=O)O)NC(=O)[C@H](CO)NC(=O)[C@@H](NC(=O)[C@H](Cc1ccccc1)NC(=O)[C@@H](NC(=O)CNC(=O)[C@H](CCC(=O)O)NC(=O)C(C)(C)NC(=O)[C@@H](N)Cc1ccc(O)cc1)[C@@H](C)O)[C@@H](C)O)[C@@H](C)CC)[C@@H](C)CC)C(C)C)C(=O)N[C@@H](C)C(=O)NCC(=O)NCC(=O)N1CCC[C@H]1C(=O)N[C@@H](CO)C(=O)N[C@@H](CO)C(=O)NCC(=O)N[C@@H](C)C(=O)N1CCC[C@H]1C(=O)N1CCC[C@H]1C(=O)N1CCC[C@H]1C(=O)N[C@@H](CO)C(N)=O,,,"healthy subjects, single ascending dose","0.5 mg, titre ≥1:20",,treatment-induced ADA positive subjects,0%
CNC(=O)[C@@H](NC(=O)[C@H](CC(C)C)[C@H](O)C(=O)NO)C(C)(C)C,human fibrinogen,SDS-PAGE,Daboia russelii,"concentration not given, unit not given, with: MP venom",baseline: untreated fibrinogen,remaining fibrinogen γ chain,0.349
CC[C@H](C)[C@@H]1NC(=O)[C@H](CCC(N)=O)NC(=O)[C@H](CCC(=O)O)NC(=O)[C@H](CCCNC(=N)N)NC(=O)[C@@H]2CCCN2C(=O)[C@H](CCCNC(=N)N)NC(=O)[C@H](CCCNC(=N)N)NC(=O)[C@H](Cc2ccc(O)cc2)NC(=O)CSC[C@@H](C(=O)NCC(N)=O)NC(=O)[C@H](Cc2ccccc2)NC(=O)[C@H](C(C)C)NC(=O)[C@H](Cc2c[nH]c3ccccc23)NC(=O)[C@H](CC(C)C)NC(=O)[C@H](CO)NC(=O)CNC(=O)[C@H]([C@@H](C)CC)NC(=O)[C@H]([C@@H](C)CC)NC1=O,Spike glycoprotein,,,,,Kd,0.046 µM
Nc1ncnc2c([C@@H]3N[C@H](CO)[C@@H](O)[C@H]3O)c[nH]c12,Marburg virus,,"HeLa, Musoke","100 µM, 1 h",,viral RNA copies,799000 copies/mL
O=C(O[C@@H]1O[C@@H]2COC(=O)c3cc(O)c(O)c(O)c3-c3c(cc(O)c(O)c3O)C(=O)O[C@H]([C@H]1O)[C@@H]2O)c1cc(O)c(O)c(O)c1,Spike glycoprotein,"binding, biolayer interferometry",,,,Kd,0.931 µM
CC[C@H](C)[C@H](NC(=O)[C@@H]1CCCN1C(=O)[C@H](C)NC(=O)[C@@H]1CSSC[C@@H]2NC(=O)[C@H](CC(=O)O)NC(=O)[C@H](CCCNC(=N)N)NC(=O)[C@H](CCC(=O)O)NC(=O)[C@H](CCCNC(=N)N)NC(=O)CNC(=O)[C@H](CC(=O)O)NC(=O)[C@@H]3CSSC[C@H](NC(=O)[C@H](CCC(=O)O)NC(=O)[C@H](CC(C)C)NC(=O)CNC(=O)[C@H](C)NC(=O)[C@H](CSSC[C@H](NC(=O)[C@H](Cc4ccccc4)NC(=O)[C@@H](N)CO)C(=O)N[C@@H](CC(C)C)C(=O)N[C@@H](C(C)C)C(=O)N[C@@H](CCCCN)C(=O)N[C@@H](Cc4c[nH]c5ccccc45)C(=O)N[C@@H](CCCCN)C(=O)N[C@@H](CCC(N)=O)C(=O)N3)NC2=O)C(=O)N[C@@H](Cc2c[nH]c3ccccc23)C(=O)N[C@@H](CCCCN)C(=O)N[C@@H](CCCNC(=N)N)C(=O)N[C@@H](CO)C(=O)N[C@@H](CCCNC(=N)N)C(=O)N[C@@H](CC(N)=O)C(=O)N[C@@H](CCCCN)C(=O)N[C@@H](CO)C(=O)N[C@@H](CO)C(=O)N[C@@H](C(C)C)C(=O)N1)C(=O)N[C@H](C(=O)O)[C@@H](C)O,"Acid-sensing ion channel 1 (ASIC1, Homo sapiens, UniProt P78348)","binding, SPR",,pH 7.5,,Kd,0.00211 µM
CC[C@H](C)[C@H](NC(=O)[C@H](CC(C)C)NC(=O)[C@H](CO)NC(=O)[C@H](Cc1c[nH]cn1)NC(=O)[C@@H](NC(=O)[C@H](CC(C)C)NC(=O)[C@H](CO)NC(=O)[C@@H](NC(=O)[C@H](Cc1ccc(O)cc1)NC(=O)[C@H](CC(N)=O)NC(=O)[C@H](CC(N)=O)NC(=O)[C@@H](NC(=O)[C@H](CCC(=O)O)NC(=O)[C@H](CCCNC(=N)N)NC(=O)[C@H](CC(=O)O)NC(=O)[C@H](Cc1c[nH]c2ccccc12)NC(=O)[C@H](CCC(=O)O)NC(=O)[C@H](CCSC)NC(=O)[C@H](Cc1c[nH]c2ccccc12)NC(C)=O)[C@@H](C)CC)[C@@H](C)O)[C@@H](C)CC)C(=O)N[C@@H](CCC(=O)O)C(=O)N[C@@H](CCC(=O)O)C(=O)N[C@@H](CO)C(=O)N[C@@H](CCC(N)=O)C(=O)N[C@@H](CC(N)=O)C(=O)N[C@@H](CCC(N)=O)C(=O)N[C@@H](CCC(N)=O)C(=O)N[C@@H](CCC(=O)O)C(=O)N[C@@H](CCCCN)C(=O)N[C@@H](CC(N)=O)C(=O)N[C@@H](CCC(=O)O)C(=O)N[C@@H](CCC(N)=O)C(=O)N[C@@H](CCC(=O)O)C(=O)N[C@@H](CC(C)C)C(=O)N[C@@H](CC(C)C)C(=O)NCC(=O)N[C@@H](CO)C(=O)NCC(=O)N[C@@H](CSCC(=O)O[C@H]1CC[C@@]2(C)C(=CC[C@H]3[C@@H]4CC[C@H]([C@H](C)CCCC(C)(C)O)[C@@]4(C)CC[C@@H]32)C1)C(N)=O,human erythrocytes,"membrane binding, di-8-ANEPPS dipole potential",,,,Kd,0.43 ± 0.11 µM
CC(=O)O[C@@H]1[C@H](N)[C@@H](OP(=O)(O)O)[C@@]2(C(=O)O)CS[C@@](O)(C(N)=O)[C@@H]1O2,"DNA-directed RNA polymerase subunit beta' / DNA-directed RNA polymerase subunit beta (rpoC/rpoB, Escherichia coli, UniProt P0A8T7+P0A8V2)","binding to elongation complex, 6-MI fluorescence titration",wild-type RNAP,riboside RNA 3′-end Uracil,,Kd,0.05 ± 0.001 µM
C[C@@H]1[C@H]2[C@H](O[C@@H]3O[C@H](CO)[C@@H](O)[C@H](O)[C@H]3O)OC=C(C(=O)O)[C@H]2C[C@@H]1O,Spike glycoprotein,"binding, BLI",,,,Kd,36.9 µM
CC[C@H](C)[C@H](N)C(=O)N[C@H](C(=O)N[C@@H](Cc1ccccc1)C(=O)N[C@H]1CSc2cc(C(F)(F)F)c(cc2C(F)(F)F)SC[C@@H](C(=O)N[C@@H](Cc2ccc(O)cc2)C(=O)N[C@@H](Cc2ccc(O)cc2)C(=O)NCC(=O)N[C@@H](CCCCN)C(=O)N[C@@H](CCCCN)C(=O)N[C@@H](CCCCN)C(N)=O)NC(=O)[C@H](CC(C)C)NC(=O)[C@H](CC(C)C)NC(=O)[C@H](CC(=O)O)NC1=O)[C@@H](C)O,gag capsid C-terminal domain,"binding, biolayer interferometry",PBS,"pH 7.4, 30 °C, biotinylated peptide immobilised, with: C-CA 5 to 100 µM",,Kd,12 ± 0.8 µM
C=CC(c1ccc(-c2ccc(OC)c(OC)c2)cc1)n1ccnc1 (stereo not drawn),cyp121,binding,,,,Kd,21.3 ± 1.1 µM
CC[C@H](C)[C@H](N)C(=O)N[C@H](C(=O)N[C@@H](Cc1ccccc1)C(=O)N[C@@H](CSCC(N)=O)C(=O)N[C@@H](CC(=O)O)C(=O)N[C@@H](CC(C)C)C(=O)N[C@@H](CC(C)C)C(=O)N[C@@H](CSCC(N)=O)C(=O)N[C@@H](Cc1ccc(O)cc1)C(=O)N[C@@H](Cc1ccc(O)cc1)C(=O)NCC(=O)N[C@@H](CCCCN)C(=O)N[C@@H](CCCCN)C(=O)N[C@@H](CCCCN)C(N)=O)[C@@H](C)O,gag capsid C-terminal domain,"binding, biolayer interferometry",PBS,"pH 7.4, 30 °C, biotinylated peptide immobilised, with: C-CA 5 to 100 µM",,Kd,5.5 ± 0.6 µM
C=CC(c1ccc(-c2ccc(O)c(Cl)c2)cc1)n1ccnc1 (stereo not drawn),cyp121,binding,,,,Kd,8.3 ± 1.7 µM
Cn1cnc(Cn2c(=O)[nH]/c(=N\c3cc4cn(C)nc4cc3Cl)n(Cc3cc(F)c(F)cc3F)c2=O)n1,,,"human, normal renal function, plasma","oral, 375 mg single dose, 24 h",,unbound fraction,0.0118
CO[C@H]1C[C@@H]2CC[C@@H](C)[C@@](O)(O2)C(=O)C(=O)N2CCCC[C@H]2C(=O)O[C@H]([C@H](C)C[C@@H]2CC[C@@H](O)[C@H](OC)C2)CC(=O)[C@H](C)/C=C(\C)[C@@H](O)[C@@H](OC)C(=O)[C@H](C)C[C@H](C)/C=C/C=C/C=C/1C,Spike glycoprotein,"binding, BLI",,,,Kd,89.6 µM
